{"data": "Experimental data gathered from unrelated publications", "note": "Each numbered part is a random draw from the data of one study; scales do not carry over between parts.", "UniProt P49137, sequence (whole entry, looked up)": "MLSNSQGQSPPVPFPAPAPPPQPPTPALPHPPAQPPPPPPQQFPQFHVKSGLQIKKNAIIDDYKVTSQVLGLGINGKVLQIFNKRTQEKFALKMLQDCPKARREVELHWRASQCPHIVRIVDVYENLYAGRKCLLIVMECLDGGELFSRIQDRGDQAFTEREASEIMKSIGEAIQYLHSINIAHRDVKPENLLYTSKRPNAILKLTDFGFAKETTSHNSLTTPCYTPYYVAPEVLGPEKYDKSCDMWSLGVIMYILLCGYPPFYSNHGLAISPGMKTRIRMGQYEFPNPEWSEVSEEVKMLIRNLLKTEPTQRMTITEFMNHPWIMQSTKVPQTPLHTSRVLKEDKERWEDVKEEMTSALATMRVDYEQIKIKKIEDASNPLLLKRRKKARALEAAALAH", "UniProt P13945, sequence (whole entry, looked up)": "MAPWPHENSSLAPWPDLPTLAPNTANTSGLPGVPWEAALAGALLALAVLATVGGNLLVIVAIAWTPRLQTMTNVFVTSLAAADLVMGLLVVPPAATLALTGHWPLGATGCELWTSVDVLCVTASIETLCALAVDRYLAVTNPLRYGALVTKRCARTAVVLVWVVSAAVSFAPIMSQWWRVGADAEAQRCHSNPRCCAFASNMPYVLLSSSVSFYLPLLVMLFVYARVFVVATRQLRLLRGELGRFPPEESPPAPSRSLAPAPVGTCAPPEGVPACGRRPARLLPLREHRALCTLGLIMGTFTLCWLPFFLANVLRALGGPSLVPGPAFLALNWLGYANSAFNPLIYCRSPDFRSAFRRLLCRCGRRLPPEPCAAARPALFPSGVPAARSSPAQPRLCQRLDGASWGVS", "UniProt P35462, sequence (whole entry, looked up)": "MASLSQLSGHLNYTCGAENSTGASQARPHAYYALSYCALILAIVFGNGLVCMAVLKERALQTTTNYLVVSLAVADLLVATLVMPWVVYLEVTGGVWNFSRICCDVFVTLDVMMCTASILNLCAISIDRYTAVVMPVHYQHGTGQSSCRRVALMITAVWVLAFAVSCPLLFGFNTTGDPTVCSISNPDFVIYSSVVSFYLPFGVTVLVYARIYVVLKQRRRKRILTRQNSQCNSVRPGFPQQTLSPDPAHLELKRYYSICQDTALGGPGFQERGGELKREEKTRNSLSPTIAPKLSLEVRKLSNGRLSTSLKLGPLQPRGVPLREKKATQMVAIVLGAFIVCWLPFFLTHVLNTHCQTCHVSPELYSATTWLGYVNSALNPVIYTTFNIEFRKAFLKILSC", "UniProt P25100, sequence (whole entry, looked up)": "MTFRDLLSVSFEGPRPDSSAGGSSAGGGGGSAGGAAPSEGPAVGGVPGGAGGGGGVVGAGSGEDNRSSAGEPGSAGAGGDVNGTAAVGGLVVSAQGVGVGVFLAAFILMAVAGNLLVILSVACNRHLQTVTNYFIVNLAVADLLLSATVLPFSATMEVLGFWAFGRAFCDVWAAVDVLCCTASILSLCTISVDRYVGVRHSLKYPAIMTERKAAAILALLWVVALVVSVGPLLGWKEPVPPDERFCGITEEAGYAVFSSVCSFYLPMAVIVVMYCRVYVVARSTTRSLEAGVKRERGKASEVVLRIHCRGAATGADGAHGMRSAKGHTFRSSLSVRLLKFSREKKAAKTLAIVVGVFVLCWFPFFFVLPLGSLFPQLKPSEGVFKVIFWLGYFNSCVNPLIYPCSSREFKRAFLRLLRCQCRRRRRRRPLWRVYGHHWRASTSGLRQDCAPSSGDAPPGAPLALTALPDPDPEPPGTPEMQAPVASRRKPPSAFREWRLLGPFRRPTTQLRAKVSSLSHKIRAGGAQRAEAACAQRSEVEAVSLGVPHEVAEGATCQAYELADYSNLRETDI", "UniProt Q02763, sequence (whole entry, looked up)": "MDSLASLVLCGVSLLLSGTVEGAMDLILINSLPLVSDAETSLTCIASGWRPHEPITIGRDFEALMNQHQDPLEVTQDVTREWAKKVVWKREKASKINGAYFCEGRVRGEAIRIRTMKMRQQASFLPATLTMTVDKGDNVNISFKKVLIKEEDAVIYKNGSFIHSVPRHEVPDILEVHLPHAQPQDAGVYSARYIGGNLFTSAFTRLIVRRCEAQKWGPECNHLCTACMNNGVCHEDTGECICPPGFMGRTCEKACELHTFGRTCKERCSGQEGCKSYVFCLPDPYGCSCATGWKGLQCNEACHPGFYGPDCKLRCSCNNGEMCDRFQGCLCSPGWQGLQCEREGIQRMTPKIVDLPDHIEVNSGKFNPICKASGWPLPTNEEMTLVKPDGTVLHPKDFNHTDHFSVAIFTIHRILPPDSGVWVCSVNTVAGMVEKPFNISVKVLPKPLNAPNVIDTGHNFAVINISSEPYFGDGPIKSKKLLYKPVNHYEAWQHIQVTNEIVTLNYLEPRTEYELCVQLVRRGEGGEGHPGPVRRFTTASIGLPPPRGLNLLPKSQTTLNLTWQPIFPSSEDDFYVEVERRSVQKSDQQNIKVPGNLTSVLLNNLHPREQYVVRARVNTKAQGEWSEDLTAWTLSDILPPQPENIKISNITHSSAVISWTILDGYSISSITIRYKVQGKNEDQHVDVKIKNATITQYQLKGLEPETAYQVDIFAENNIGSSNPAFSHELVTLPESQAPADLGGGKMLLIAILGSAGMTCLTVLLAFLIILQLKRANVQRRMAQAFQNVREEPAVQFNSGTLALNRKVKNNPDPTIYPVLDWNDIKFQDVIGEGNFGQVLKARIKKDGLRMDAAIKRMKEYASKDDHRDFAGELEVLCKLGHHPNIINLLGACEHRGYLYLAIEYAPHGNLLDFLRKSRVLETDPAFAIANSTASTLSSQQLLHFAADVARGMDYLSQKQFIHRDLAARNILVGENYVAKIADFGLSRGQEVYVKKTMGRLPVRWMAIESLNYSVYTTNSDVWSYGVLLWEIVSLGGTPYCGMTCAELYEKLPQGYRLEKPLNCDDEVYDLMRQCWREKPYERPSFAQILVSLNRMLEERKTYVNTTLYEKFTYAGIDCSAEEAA", "UniProt P27361, sequence (whole entry, looked up)": "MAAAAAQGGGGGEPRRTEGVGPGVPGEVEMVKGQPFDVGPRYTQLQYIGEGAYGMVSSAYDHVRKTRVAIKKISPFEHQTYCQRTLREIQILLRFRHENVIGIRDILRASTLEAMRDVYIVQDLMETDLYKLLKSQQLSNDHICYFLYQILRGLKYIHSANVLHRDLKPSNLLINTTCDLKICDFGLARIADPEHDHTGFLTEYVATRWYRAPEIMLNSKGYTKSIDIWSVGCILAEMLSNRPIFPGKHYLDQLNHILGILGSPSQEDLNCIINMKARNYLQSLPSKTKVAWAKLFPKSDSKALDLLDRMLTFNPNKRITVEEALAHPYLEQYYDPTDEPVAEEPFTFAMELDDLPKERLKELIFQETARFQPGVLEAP", "UniProt Q9UHD2, sequence (whole entry, looked up)": "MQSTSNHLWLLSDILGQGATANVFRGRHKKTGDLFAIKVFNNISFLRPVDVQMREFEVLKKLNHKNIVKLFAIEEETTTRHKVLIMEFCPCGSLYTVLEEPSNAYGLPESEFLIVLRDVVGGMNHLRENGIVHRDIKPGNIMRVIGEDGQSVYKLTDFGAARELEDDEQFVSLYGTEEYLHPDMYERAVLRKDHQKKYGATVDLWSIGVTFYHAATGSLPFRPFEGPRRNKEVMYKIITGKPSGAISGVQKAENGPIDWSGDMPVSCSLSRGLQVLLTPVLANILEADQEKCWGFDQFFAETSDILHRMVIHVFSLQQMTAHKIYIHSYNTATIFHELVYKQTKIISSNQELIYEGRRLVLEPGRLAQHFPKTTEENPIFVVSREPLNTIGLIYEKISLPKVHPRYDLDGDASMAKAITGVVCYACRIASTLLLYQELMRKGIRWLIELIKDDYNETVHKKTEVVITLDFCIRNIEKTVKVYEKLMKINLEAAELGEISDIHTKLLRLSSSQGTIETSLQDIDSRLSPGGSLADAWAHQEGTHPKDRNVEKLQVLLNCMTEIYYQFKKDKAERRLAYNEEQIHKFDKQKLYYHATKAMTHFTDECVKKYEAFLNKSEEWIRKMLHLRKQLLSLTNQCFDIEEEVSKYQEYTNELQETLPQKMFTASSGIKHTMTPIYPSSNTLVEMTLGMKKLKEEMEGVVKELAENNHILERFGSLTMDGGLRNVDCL", "UniProt P21728, sequence (whole entry, looked up)": "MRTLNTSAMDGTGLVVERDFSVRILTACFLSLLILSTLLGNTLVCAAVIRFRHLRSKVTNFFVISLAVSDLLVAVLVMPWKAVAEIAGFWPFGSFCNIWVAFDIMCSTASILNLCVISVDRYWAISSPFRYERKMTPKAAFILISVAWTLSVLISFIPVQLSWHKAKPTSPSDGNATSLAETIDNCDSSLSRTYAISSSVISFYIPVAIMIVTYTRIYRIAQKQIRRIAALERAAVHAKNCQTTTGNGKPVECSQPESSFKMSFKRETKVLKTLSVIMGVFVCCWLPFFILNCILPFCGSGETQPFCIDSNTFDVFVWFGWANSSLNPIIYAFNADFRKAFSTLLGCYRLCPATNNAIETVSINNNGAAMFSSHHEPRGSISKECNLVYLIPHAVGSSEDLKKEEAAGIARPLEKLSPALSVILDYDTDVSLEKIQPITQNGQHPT", "UniProt P35367, sequence (whole entry, looked up)": "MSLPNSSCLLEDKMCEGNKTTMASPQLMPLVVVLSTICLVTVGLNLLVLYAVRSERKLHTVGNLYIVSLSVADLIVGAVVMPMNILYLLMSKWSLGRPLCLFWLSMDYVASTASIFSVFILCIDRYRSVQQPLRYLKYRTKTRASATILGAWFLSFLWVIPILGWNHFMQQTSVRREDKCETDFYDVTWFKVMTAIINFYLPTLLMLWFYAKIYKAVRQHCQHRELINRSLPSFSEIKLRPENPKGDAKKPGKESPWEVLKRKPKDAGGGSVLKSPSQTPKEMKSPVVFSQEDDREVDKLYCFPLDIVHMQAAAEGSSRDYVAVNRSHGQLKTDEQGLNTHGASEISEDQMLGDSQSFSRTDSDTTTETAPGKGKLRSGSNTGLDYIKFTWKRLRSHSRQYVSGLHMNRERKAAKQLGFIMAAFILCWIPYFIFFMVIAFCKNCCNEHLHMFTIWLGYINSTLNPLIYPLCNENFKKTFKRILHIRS"}
{"data": "Set 1", "target": "RNA binding protein fox-1 homolog 2, RRM domain, GST-SBP tag (RBFOX2, Homo sapiens, UniProt O43251-10, residues 100-194)", "technique": "RNA Bind-n-Seq", "molecule type": "RNA", "matrix": "in vitro", "concentration": "365 nM", "notes": "natural RNA segment, single round, ends assumed", "relative to": "no-protein control", "reading": "higher = stronger binding", "Construct (chain)": "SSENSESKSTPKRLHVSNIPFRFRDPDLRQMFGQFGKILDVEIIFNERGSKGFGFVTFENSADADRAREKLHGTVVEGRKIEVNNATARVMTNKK"}
{"Oligonucleotide": "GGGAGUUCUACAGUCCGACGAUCCCAAGACUGGAACAUCCUUCUGACUGGAUAAAUAAAUAAAACACCUGGGCCUCACCCUUAGACUGAGGCUGCACCCAUUCCUUAGAGGCUACUUCAGUUGCCUGACAAGAUGGAAUUCUCGGGUGCCAA", "RBNS enrichment (R)": 0.99}
{"Oligonucleotide": "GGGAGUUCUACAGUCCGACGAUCCUGGGGCCUGAUCCACCUCUACACCAGCCCAGGAAGCCCCAUCUGUGCCUGCCCUCAGGUGGUCCACCAGUCUCCCCCUUUGGUUCCCUUCCAGUCUCUUCCCCCUUUCUUGGAAUUCUCGGGUGCCAA", "RBNS enrichment (R)": 0.742}
{"Oligonucleotide": "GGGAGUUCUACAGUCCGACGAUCGUGUUUGUUUCAUGUGCCUGAAUAUCUUAAGCCACUUUCUGCAAAAGCUGUUUCUUACAGAUGAAGUGCUUUCUUUGAAAGGUGGUUAUUUAGGUUUUAGAUGUUUAAUAUGGAAUUCUCGGGUGCCAA", "RBNS enrichment (R)": 0.784}
{"Oligonucleotide": "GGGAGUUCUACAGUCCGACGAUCGUCUGUUAGCAUCUUCCUUUUCAUGGGGGGAGGGAAGAUAAAGUGAAUUGCCCAGAGCUGCCUUUUUCUUUUCUUUUUAAAAAUUUUAAGAAGUUUUCUUUGUGGGGCUGUGGAAUUCUCGGGUGCCAA", "RBNS enrichment (R)": 2.34}
{"Oligonucleotide": "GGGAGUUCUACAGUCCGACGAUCACUGUUAAAGAUGUCAAGCCUAAAAAGUAAUAAAGUUUUUAUUUGGCUGUUGAACCUUGAUGUAGCCCCUACUACAUACACUACAAGUUAUGCCUUCUGGCUACUACAGAUGGAAUUCUCGGGUGCCAA", "RBNS enrichment (R)": 0.306}
{"Oligonucleotide": "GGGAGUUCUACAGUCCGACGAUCAGGAAAUCACCAGCUUUGGCAUCUGACCAACAAACAGUGAGUGGGAGACGUGAUUUCCGAUGCGCAUCUUCAGAGUCAAACACACCCUCCCUCGUGUACAACCAAAGAACUGGAAUUCUCGGGUGCCAA", "RBNS enrichment (R)": 0.4}
{"Oligonucleotide": "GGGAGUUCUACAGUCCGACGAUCUAGUGUAAGAGCUGCCCGGCUCCCUGGAGUAAAGCGCUACACGCAAGUUCCCAUAAAGCAAACAGGGCUUCUACUUUGUCUGCUCGGUGACAGACAACCAAGUUUUCCUCUGGAAUUCUCGGGUGCCAA", "RBNS enrichment (R)": 0.215}
{"Oligonucleotide": "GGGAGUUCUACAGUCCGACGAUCGAUGACAGAAAGCUUAUGCUGUCUACCACUGAACAGUGAUGGAGAUGGUGCUAAGUUUUUACAGUUGUCUUAGCCCCAGUGGUUCUCAAGGUGGGGCUCCUGGCCCAGCAUGGAAUUCUCGGGUGCCAA", "RBNS enrichment (R)": 2.05}
{"data": "Set 2", "Compound": "CN(C)C(=O)Cn1cc(-c2nc(C3(c4ccc(-c5cnc(N)nc5)cc4)CC3)no2)cn1", "observed": "cell-free assay", "concentration": "10 µM"}
{"target": "Muscarinic acetylcholine receptor M2 (CHRM2, Homo sapiens, UniProt P08172)", "inhibition [%]": -0.311}
{"target": "5-hydroxytryptamine receptor 7 (HTR7, Homo sapiens, UniProt P34969)", "inhibition [%]": -27.3}
{"target": "Alpha-1A adrenergic receptor (ADRA1A, Homo sapiens, UniProt P35348)", "inhibition [%]": 13.9}
{"target": "Histamine H2 receptor (HRH2, Homo sapiens, UniProt P25021)", "inhibition [%]": -9.18}
{"target": "Histamine H3 receptor (HRH3, Homo sapiens, UniProt Q9Y5N1)", "inhibition [%]": 3.45}
{"target": "Beta-3 adrenergic receptor (ADRB3, Homo sapiens, UniProt P13945)", "inhibition [%]": 3.05}
{"target": "Histamine H4 receptor (HRH4, Homo sapiens, UniProt Q9H3N8)", "inhibition [%]": 36.6}
{"target": "D(1A) dopamine receptor (DRD1, Homo sapiens, UniProt P21728)", "inhibition [%]": -6.69}
{"target": "Muscarinic acetylcholine receptor M4 (CHRM4, Homo sapiens, UniProt P08173)", "inhibition [%]": 5.81}
{"target": "Histamine H1 receptor (HRH1, Homo sapiens, UniProt P35367)", "inhibition [%]": 8.78}
{"target": "D(3) dopamine receptor (DRD3, Homo sapiens, UniProt P35462)", "inhibition [%]": -2.44}
{"target": "Beta-2 adrenergic receptor (ADRB2, Homo sapiens, UniProt P07550)", "inhibition [%]": 3.55}
{"target": "Muscarinic acetylcholine receptor M5 (CHRM5, Homo sapiens, UniProt P08912)", "inhibition [%]": -1.63}
{"target": "Sigma non-opioid intracellular receptor 1 (SIGMAR1, Homo sapiens, UniProt Q99720)", "inhibition [%]": -4.19}
{"target": "Alpha-1D adrenergic receptor (ADRA1D, Homo sapiens, UniProt P25100)", "inhibition [%]": -15.4}
{"data": "Set 3", "target": "TAR DNA-binding protein 43, full length, His tag (TARDBP, Homo sapiens, UniProt Q13148, residues 1-414)", "technique": "RNA Bind-n-Seq", "molecule type": "RNA", "matrix": "in vitro", "concentration": "20 nM", "notes": "6-mer, flanks averaged, single round", "together with": "150 mM LiCl", "relative to": "input library", "reading": "higher = stronger binding"}
{"Oligonucleotide": "UUUGCU", "6-mer enrichment (R)": 1.15}
{"Oligonucleotide": "CCCAUU", "6-mer enrichment (R)": 1.09}
{"Oligonucleotide": "ACCCGU", "6-mer enrichment (R)": 0.92}
{"Oligonucleotide": "AAAGGC", "6-mer enrichment (R)": 0.846}
{"Oligonucleotide": "UCAAGA", "6-mer enrichment (R)": 0.796}
{"Oligonucleotide": "AUAGGA", "6-mer enrichment (R)": 0.901}
{"Oligonucleotide": "UAAGGG", "6-mer enrichment (R)": 1.06}
{"Oligonucleotide": "GGAAUA", "6-mer enrichment (R)": 0.916}
{"data": "Set 4", "SMILES": "Cc1ccc(S(=O)(=O)/C=C/C#N)cc1", "observed": "enzyme activity", "action": "inhibitor", "concentration": "0.5 µM", "relative to": "control"}
{"target": "Serine/threonine-protein kinase TAO2 (TAOK2, Homo sapiens, UniProt Q9UL54)", "remaining activity": "89.7%"}
{"target": "Angiopoietin-1 receptor (TEK, Homo sapiens, UniProt Q02763)", "remaining activity": "101%"}
{"target": "Wee1-like protein kinase (WEE1, Homo sapiens, UniProt P30291)", "remaining activity": "96.4%"}
{"target": "Mitogen-activated protein kinase 3 (MAPK3, Homo sapiens, UniProt P27361)", "remaining activity": "98.2%"}
{"target": "Tyrosine-protein kinase FRK (FRK, Homo sapiens, UniProt P42685)", "remaining activity": "91.6%"}
{"target": "MAP kinase-activated protein kinase 2 (MAPKAPK2, Homo sapiens, UniProt P49137)", "remaining activity": "93.7%"}
{"target": "Serine/threonine-protein kinase TBK1 (TBK1, Homo sapiens, UniProt Q9UHD2)", "remaining activity": "83.9%"}
{"target": "Fibroblast growth factor receptor 1 (FGFR1, Homo sapiens, UniProt P11362)", "remaining activity": "106%"}
{"target": "Casein kinase I isoform gamma-3 (CSNK1G3, Homo sapiens, UniProt Q9Y6M4)", "remaining activity": "88.3%"}
{"target": "Tyrosine-protein kinase JAK3 (JAK3, Homo sapiens, UniProt P52333)", "remaining activity": "101%"}
{"target": "Serine/threonine-protein kinase ULK2 (ULK2, Homo sapiens, UniProt Q8IYT8)", "remaining activity": "110%"}
{"target": "Macrophage-stimulating protein receptor (MST1R, Homo sapiens, UniProt Q04912)", "remaining activity": "113%"}
{"target": "Activin receptor type-1B (ACVR1B, Homo sapiens, UniProt P36896)", "remaining activity": "107%"}
